Results from different studies.
Lines come from different studies, so protocols differ. Values joined by “and” are separate records of one study, mostly repeats; a detail may differ. Numbers after ± are the reported error.
rep main protease: Replicase polyprotein 1ab, main protease (rep, Severe acute respiratory syndrome coronavirus 2, UniProt P0DTD1)
plsY3: Glycerol-3-phosphate acyltransferase 3 (plsY3, Bacillus anthracis, UniProt Q81Y92)
UniProt Q81Y92, sequence (whole entry, looked up): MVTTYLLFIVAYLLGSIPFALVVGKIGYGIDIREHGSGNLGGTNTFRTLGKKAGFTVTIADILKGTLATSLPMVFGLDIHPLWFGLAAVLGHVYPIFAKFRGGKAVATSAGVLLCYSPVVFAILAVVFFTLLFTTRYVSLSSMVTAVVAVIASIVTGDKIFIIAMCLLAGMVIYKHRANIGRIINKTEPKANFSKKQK
Spike glycoprotein: Spike glycoprotein (Severe acute respiratory syndrome coronavirus 2, UniProt P0DTC2)
UniProt P07510, sequence (whole entry, looked up): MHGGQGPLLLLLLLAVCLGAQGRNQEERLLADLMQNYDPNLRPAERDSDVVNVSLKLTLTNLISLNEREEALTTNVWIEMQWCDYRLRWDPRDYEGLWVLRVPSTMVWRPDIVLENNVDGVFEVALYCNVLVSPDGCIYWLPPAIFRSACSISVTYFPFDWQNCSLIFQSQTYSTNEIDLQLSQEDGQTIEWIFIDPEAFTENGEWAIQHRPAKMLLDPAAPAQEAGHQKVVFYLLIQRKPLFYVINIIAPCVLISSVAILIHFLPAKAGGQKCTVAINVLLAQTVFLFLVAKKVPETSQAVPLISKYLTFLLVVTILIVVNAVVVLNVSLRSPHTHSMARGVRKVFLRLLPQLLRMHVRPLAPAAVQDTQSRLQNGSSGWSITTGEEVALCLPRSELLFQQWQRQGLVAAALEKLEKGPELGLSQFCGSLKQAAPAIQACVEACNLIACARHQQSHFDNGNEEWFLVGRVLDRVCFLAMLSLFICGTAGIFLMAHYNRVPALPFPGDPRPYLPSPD
UniProt P02708, sequence (whole entry, looked up): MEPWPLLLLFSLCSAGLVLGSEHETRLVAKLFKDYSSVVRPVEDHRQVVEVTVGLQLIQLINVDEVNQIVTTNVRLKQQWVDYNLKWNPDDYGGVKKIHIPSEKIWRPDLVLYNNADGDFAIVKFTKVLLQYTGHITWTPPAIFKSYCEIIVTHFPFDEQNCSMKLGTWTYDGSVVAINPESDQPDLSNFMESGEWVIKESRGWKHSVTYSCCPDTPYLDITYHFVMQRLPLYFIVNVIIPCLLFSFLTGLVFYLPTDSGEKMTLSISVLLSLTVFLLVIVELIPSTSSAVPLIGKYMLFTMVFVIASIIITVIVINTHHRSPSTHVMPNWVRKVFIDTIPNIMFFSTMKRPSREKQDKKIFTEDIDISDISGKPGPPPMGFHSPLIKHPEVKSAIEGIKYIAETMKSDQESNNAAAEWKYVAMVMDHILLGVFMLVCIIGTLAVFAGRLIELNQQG
UniProt Q07001, sequence (whole entry, looked up): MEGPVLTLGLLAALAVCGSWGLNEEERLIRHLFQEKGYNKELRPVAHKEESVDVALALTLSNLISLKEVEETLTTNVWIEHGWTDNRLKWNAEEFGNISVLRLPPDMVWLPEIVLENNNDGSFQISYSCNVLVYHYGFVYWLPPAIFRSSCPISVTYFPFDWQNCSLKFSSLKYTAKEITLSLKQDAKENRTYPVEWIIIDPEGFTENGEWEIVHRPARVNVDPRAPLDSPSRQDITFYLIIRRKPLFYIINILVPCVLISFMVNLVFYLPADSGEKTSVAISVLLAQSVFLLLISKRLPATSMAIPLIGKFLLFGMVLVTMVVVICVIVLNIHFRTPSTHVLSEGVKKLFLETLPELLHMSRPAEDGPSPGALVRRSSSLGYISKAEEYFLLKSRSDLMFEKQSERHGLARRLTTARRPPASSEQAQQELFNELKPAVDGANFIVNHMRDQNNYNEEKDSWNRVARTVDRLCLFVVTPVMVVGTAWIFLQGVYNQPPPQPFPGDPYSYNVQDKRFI

Structure (SMILES) | target or system | assay | system | conditions | scale | quantity | value
CNC(=O)[C@@H](NC(=O)[C@H](CC(C)C)[C@H](O)C(=O)NO)C(C)(C)C | Daboia russelii venom proteases (SVMP) | protease activity, inhibitor | KL population | 0.1 µM, added: azocasein substrate | relative to: venom alone | remaining activity | 74.5% and 76.7% and 74.7%
CN(C(=O)n1cnc(-c2ccc[n+]([O-])c2)c1)C1CCCCC1 | strychnine-sensitive glycine receptor, rat | binding | – | 50 µM, added: [3H]strychnine | – | inhibition | 3%
CN[C@]1(c2ccccc2Cl)CCCCC1=O | muscarinic acetylcholine receptor | radioligand binding, antagonist, radioligand displacement | – | 30 µM | – | inhibition | 24%
C[C@@H]1O[C@@H](O[C@H]2[C@H](O[C@H]3[C@H](O[C@H]4CC[C@@]5(C)[C@@H](CC[C@]6(C)[C@@H]5CC=C5[C@@H]7CC(C)(C)C[C@@H](O)[C@]7(C)CC[C@]56C)[C@@]4(C)CO)O[C@H](C(=O)O)[C@@H](O)[C@@H]3O)O[C@H](CO)[C@H](O)[C@@H]2O)[C@H](O)[C@H](O)[C@H]1O | rep main protease | reporter gene (mKate2), inhibitor | – | 20 µM | – | inhibition | -0.18%
Cc1ccc2cc(C(=O)N3CCCC4(CCN(c5cc6nncn6c(C)n5)CC4)C3)ccc2c1 | rep main protease | enzyme activity, inhibitor | – | 5 µM, run 1 | – | inhibition | 15.5%
CC[C@H](C)[C@H](NC(=O)[C@H](CC(C)C)NC(=O)[C@H](Cc1c[nH]c2ccccc12)NC(=O)[C@H](CCC(N)=O)NC(=O)[C@@H](NC(=O)[C@H](Cc1ccccc1)NC(=O)[C@H](C)NC(=O)[C@H](CCCCNC(=O)COCCOCCNC(=O)COCCOCCNC(=O)CC[C@H](NC(=O)CCCCCCCCCCCCCCCCCCC(=O)O)C(=O)O)NC(=O)[C@H](CCC(N)=O)NC(=O)[C@H](C)NC(=O)[C@@H](NC(=O)[C@H](CCCCN)NC(=O)[C@H](CC(=O)O)NC(=O)[C@H](CC(C)C)NC(=O)C(C)(C)NC(=O)[C@@H](NC(=O)[C@H](CO)NC(=O)[C@H](Cc1ccc(O)cc1)NC(=O)[C@H](CC(=O)O)NC(=O)[C@H](CO)NC(=O)[C@@H](NC(=O)[C@H](Cc1ccccc1)NC(=O)[C@@H](NC(=O)CNC(=O)[C@H](CCC(=O)O)NC(=O)C(C)(C)NC(=O)[C@@H](N)Cc1ccc(O)cc1)[C@@H](C)O)[C@@H](C)O)[C@@H](C)CC)[C@@H](C)CC)C(C)C)C(=O)N[C@@H](C)C(=O)NCC(=O)NCC(=O)N1CCC[C@H]1C(=O)N[C@@H](CO)C(=O)N[C@@H](CO)C(=O)NCC(=O)N[C@@H](C)C(=O)N1CCC[C@H]1C(=O)N1CCC[C@H]1C(=O)N1CCC[C@H]1C(=O)N[C@@H](CO)C(N)=O | – | refers to: anti-drug antibodies | patients with type 2 diabetes | 5/5/10/15 mg escalating, titer increase ≥4-fold | – | subjects with treatment-boosted ADA | 0%
Cn1cnc(Cn2c(=O)[nH]/c(=N\c3cc4cn(C)nc4cc3Cl)n(Cc3cc(F)c(F)cc3F)c2=O)n1 | – | – | human, severe renal impairment | oral, 375 mg, treatment-related dry mouth, Severe severity | – | patients with adverse event | 0%
Nc1ncnc2c([C@@H]3N[C@H](CO)[C@@H](O)[C@H]3O)c[nH]c12 | Sudan ebolavirus | viral replication | HeLa, Boniface | 12.5 µM | – | inhibition | 74.4%
COC(=O)NCCc1c(C(O)c2ccc(OC)cc2)[nH]c2ccc(OC)cc12 (stereo not drawn) | Angiotensin-converting enzyme 2, with SARS-CoV-2 spike RBD (ACE2, Homo sapiens, UniProt Q9BYF1) | RBD binding, TR-FRET | – | 100 µM, added: RBD-d2 5 nM | – | inhibition | 20 to 30%
CCCCCCCCCCCCCCCC(=O)C(F)(F)P(=O)(O)O | plsY3 | inhibitor | – | 200 µM | – | inhibition | 91%
CC(C)=CCc1c(O)ccc(C(=O)/C=C/c2ccc(O)cc2)c1O | Spike glycoprotein | binding | – | – | – | Kd | 5.7 µM
Clc1ccc(Cn2c(CN3CCCC3)nc3ccccc32)cc1 | rep main protease | reporter gene (mKate2), inhibitor | – | 20 µM | – | inhibition | -0.215%
Cc1cc(N[C@H]2C[C@H]3CC[C@@H]2N(C(=O)c2cnc4[nH]cc(C)c4c2)C3)nc(-c2cccnc2)n1 | rep main protease | enzyme activity, inhibitor | – | 5 µM, run 1 | – | inhibition | 17.9%
O=c1cc(-c2ccccc2)oc2c(O)c(O)ccc12 | Spike glycoprotein | binding, biolayer interferometry | – | – | – | Kd | 39.7 µM
CN1CCc2nc(C(=O)N[C@@H]3C[C@@H](C(=O)N(C)C)CC[C@@H]3NC(=O)C(=O)Nc3ccc(Cl)cn3)sc2C1.Cc1ccc(S(=O)(=O)O)cc1.O | rep main protease | reporter gene (Gaussia luciferase), inhibitor | – | 20 µM | – | inhibition | 0.714%
O=C(NC[C@@H]1Cc2ccccc2CN1c1nnnn1-c1ccccc1)c1cc[nH]c(=O)c1 | rep main protease | enzyme activity, inhibitor | – | 5 µM, mean of runs | – | inhibition | 11.3%
CCOC(=O)COc1ccc(/C=C2\SC(=S)NC2=O)cc1OC | rep main protease | viral replication, Gluc reporter | SARS-CoV-2 | 20 µM | – | inhibition | 0.0578%
Cc1ccc(C)c(C(=O)N2CC[C@@H]([C@@H]3CCCN(C(=O)c4cccc5oc(=O)[nH]c45)C3)C2)c1 | rep main protease | enzyme activity, inhibitor | – | 5 µM, run 2 | – | inhibition | 11.2%
CCN(Cc1ccccc1C(F)(F)F)C(=O)C1CCN(S(=O)(=O)c2ccc3[nH]ncc3c2)CC1 | CHRNA1/CHRNG/CHRND (Homo sapiens, UniProt P02708+P07510+Q07001) | – | – | 10 µM | – | inhibition | 1%
CC[C@H](C)[C@H](NC(=O)[C@H](CC(C)C)NC(=O)[C@H](CO)NC(=O)[C@H](Cc1c[nH]cn1)NC(=O)[C@@H](NC(=O)[C@H](CC(C)C)NC(=O)[C@H](CO)NC(=O)[C@@H](NC(=O)[C@H](Cc1ccc(O)cc1)NC(=O)[C@H](CC(N)=O)NC(=O)[C@H](CC(N)=O)NC(=O)[C@@H](NC(=O)[C@H](CCC(=O)O)NC(=O)[C@H](CCCNC(=N)N)NC(=O)[C@H](CC(=O)O)NC(=O)[C@H](Cc1c[nH]c2ccccc12)NC(=O)[C@H](CCC(=O)O)NC(=O)[C@H](CCSC)NC(=O)[C@H](Cc1c[nH]c2ccccc12)NC(C)=O)[C@@H](C)CC)[C@@H](C)O)[C@@H](C)CC)C(=O)N[C@@H](CCC(=O)O)C(=O)N[C@@H](CCC(=O)O)C(=O)N[C@@H](CO)C(=O)N[C@@H](CCC(N)=O)C(=O)N[C@@H](CC(N)=O)C(=O)N[C@@H](CCC(N)=O)C(=O)N[C@@H](CCC(N)=O)C(=O)N[C@@H](CCC(=O)O)C(=O)N[C@@H](CCCCN)C(=O)N[C@@H](CC(N)=O)C(=O)N[C@@H](CCC(=O)O)C(=O)N[C@@H](CCC(N)=O)C(=O)N[C@@H](CCC(=O)O)C(=O)N[C@@H](CC(C)C)C(=O)N[C@@H](CC(C)C)C(=O)NCC(=O)N[C@@H](CO)C(=O)NCC(=O)N[C@@H](CSCC(=O)O[C@H]1CC[C@@]2(C)C(=CC[C@H]3[C@@H]4CC[C@H]([C@H](C)CCCC(C)(C)O)[C@@]4(C)CC[C@@H]32)C1)C(N)=O | – | Trp fluorescence | POPC/cholesterol/SM vesicles | 5 µM, pH 7.4, 25 °C | – | partition coefficient | 775 ± 307
CCOP(=S)(OCC)Oc1nc(Cl)c(Cl)cc1Cl | rat CYP2D | bufuralol 1'-hydroxylation, non-competitive inhibitor | rat Sprague-Dawley, liver microsomes | 10 min, pH 7.4, added: bufuralol 4 to 134 µM | – | Ki | 1450 ± 362 µM
CCCCCCCCCCCCCCCC(=O)NS(=O)(=O)Oc1ccc(OC)cc1 | plsY3 | inhibitor | – | 200 µM | – | inhibition | 100%
Cc1c[nH]c2ncc(C(=O)N[C@H]3[C@H](CNc4cc(=O)n5ccccc5n4)CCC34CCC4)cc12 | rep main protease | enzyme activity, inhibitor | – | 5 µM, run 1 | – | inhibition | 17%
CC[C@H](NC(=O)[C@H](CS(=O)(=O)CC1CC1)N[C@@H](c1ccc(F)cc1)C(F)(F)F)C(=O)C(=O)NC1CC1 | rep main protease | viral replication, mKate2 reporter | SARS-CoV-2 | 20 µM | – | inhibition | -0.177%

Repeated from above:
Structure (SMILES) | target or system | assay | system | conditions | scale | quantity | value
CNC(=O)[C@@H](NC(=O)[C@H](CC(C)C)[C@H](O)C(=O)NO)C(C)(C)C | Daboia russelii venom proteases (SVMP) | protease activity, inhibitor | KL population | 0.1 µM, added: azocasein substrate | relative to: venom alone | remaining activity | 74.5% and 76.7% and 74.7%
CN(C(=O)n1cnc(-c2ccc[n+]([O-])c2)c1)C1CCCCC1 | strychnine-sensitive glycine receptor, rat | binding | – | 50 µM, added: [3H]strychnine | – | inhibition | 3%
